Experimental data of several laboratories.
Compare with care: the assays were run in different laboratories. ± marks the error that the study gave.
ALB: Albumin (ALB, Bos taurus, UniProt P02769)

| Substance | target or system | test | system | conditions | endpoint | result |
| --- | --- | --- | --- | --- | --- | --- |
| C[C@H](Nc1ncnc(N)c1C#N)c1c(-c2ccccc2)[nH]c2c(Cl)cccc2c1=O | PIK3CA (Homo sapiens, UniProt P42336) | kinase activity, inhibitor | – | – | IC50 | 0.236 µM |
| NS(=O)(=O)c1ccc(NC(=O)c2ccccc2SSc2ccccc2C(=O)Nc2ccc(S(N)(=O)=O)cc2)cc1 | Gag-Pol polyprotein, integrase residues 1-213 (gag-pol, Human immunodeficiency virus type 1 group M subtype B, UniProt P04585) | DNA binding, fluorescence anisotropy | integrase ΔC | compound:IN ratio 3:1, added: 10 mM Mg2+, U5 DNA | Hill coefficient | 1.43 |
| CC[C@H](C)[C@H](NC(=O)[C@H](Cc1ccccc1)NC(=O)[C@@H]1CCn2cc(nn2)-c2cccc(c2)-c2cn(nn2)CC[C@H](NC(=O)[C@H](CCC(N)=O)NC(=O)[C@H](CCCCN)NC(=O)[C@H](CO)NC(=O)[C@H](CC(C)C)NC(=O)[C@H](CC(=O)O)NC(=O)[C@H](CO)NC(=O)[C@@H](NC(=O)[C@H](Cc2ccccc2)NC(=O)[C@@H](NC(=O)CNC(=O)[C@H](CCC(=O)O)NC(=O)CNC(=O)[C@@H](N)Cc2c[nH]cn2)[C@@H](C)O)[C@@H](C)O)C(=O)N[C@@H](CCC(=O)O)C(=O)N[C@@H](CCC(=O)O)C(=O)N[C@@H](CCC(=O)O)C(=O)N[C@@H](C)C(=O)N[C@@H](C(C)C)C(=O)N[C@@H](CCCNC(=N)N)C(=O)N1)C(=O)N[C@@H](CCC(=O)O)C(=O)N[C@@H](Cc1c[nH]c2ccccc12)C(=O)N[C@@H](CC(C)C)C(=O)N[C@@H](CCCCN)C(=O)N[C@@H](CC(N)=O)C(=O)NCC(=O)NCC(=O)N1CCC[C@H]1C(=O)N[C@@H](CO)C(=O)N[C@@H](CO)C(=O)NCC(=O)N[C@@H](C)C(=O)N1CCC[C@H]1C(=O)N1CCC[C@H]1C(=O)N1CCC[C@H]1C(=O)N[C@@H](CO)C(N)=O | – | RP-HPLC | trypsin digest | 75 µM, pH 7.4, room temperature, added: trypsin 500 ng/µL | half-life | 3.2 h |
| TCAGATATTTGCGTCTCCGAGGAAAGAT (dsDNA) | aflR 15-79 (Aspergillus flavus, UniProt P41765) | EMSA | double-stranded DNA, one strand shown | – | binding | no binding |
| CN1CCN(c2ccc3[nH]c(-c4ccc5[nH]c(-c6ccc(OCCCCNC(=O)c7ccc8c(c7)C7(OC8=O)c8ccc(N(C)C)cc8[Si](C)(C)c8cc(N(C)C)ccc87)cc6)nc5c4)nc3c2)CC1 | ALB | – | PBS | 1 µM, 1 h, added: 25 mg/mL albumin | fluorescence quantum yield | 0.047 ± 0.002 |
| Cc1cc(=O)oc2cc(NC(=O)[C@@H]3CCC(=O)N3)ccc12 | DNA gyrase (gyrA/gyrB, Escherichia coli, UniProt P0AES4+P0AES6) | supercoiling activity, inhibitor, relaxed plasmid supercoiling | – | 100 to 1000 µM, added: gyrase 10 nM | inhibition | no inhibition |
| CN1CCN(c2ccc3[nH]c(-c4ccc5[nH]c(-c6ccc(OCCCCNC(=O)c7ccc8c(c7)C(=O)OC87c8ccc(N(C)C)cc8[Si](C)(C)c8cc(N(C)C)ccc87)cc6)nc5c4)nc3c2)CC1 | ALB | – | PBS | 1 µM, 1 h, added: 25 mg/mL albumin | fluorescence quantum yield | 0.071 ± 0.004 |
| GGAUCCAUUCGAUUAGUGAACGGAUCC (structured RNA) | HNRNPA1 1-196 C43S/C175S (Homo sapiens, UniProt P09651) | ITC | folded RNA | – | Kd | 0.0278 ± 0.0005 µM |

Some of these lines once more:
| Substance | target or system | test | system | conditions | endpoint | result |
| --- | --- | --- | --- | --- | --- | --- |
| CN1CCN(c2ccc3[nH]c(-c4ccc5[nH]c(-c6ccc(OCCCCNC(=O)c7ccc8c(c7)C(=O)OC87c8ccc(N(C)C)cc8[Si](C)(C)c8cc(N(C)C)ccc87)cc6)nc5c4)nc3c2)CC1 | ALB | – | PBS | 1 µM, 1 h, added: 25 mg/mL albumin | fluorescence quantum yield | 0.071 ± 0.004 |
